{"data": "Published values collected from several papers", "note": "± gives the spread as reported."}
{"Compound": "N[C@]1(c2ccccc2Cl)CCC[C@H](O)C1=O", "system": "Wistar rat, plasma", "conditions": "oral, 20 mg/kg", "measurement": "Cmax", "result": "4710 ± 1220 ng/mL"}
{"Compound": "O=C(Cc1cccs1)N[C@@H]1C(=O)N2C(C(=O)O)=C(CSc3cccc[n+]3[O-])CS[C@H]12", "system": "human liver microsomes", "conditions": "0.5 µM", "measurement": "metabolic stability", "result": "stable"}
{"Compound": "CN[C@@H]1[C@H](O)[C@H](NC)[C@H]2O[C@]3(O)[C@H](O[C@@H]2[C@H]1O)O[C@H](C)C[C@H]3NC(=O)Cc1ccccn1", "test": "metabolic stability", "system": "rat, liver microsomes", "conditions": "90 min", "measurement": "compound remaining", "result": "83.7%"}
{"Compound": "CC[C@H](C)[C@H](NC(=O)[C@@H](NC(=O)[C@H](CCC(N)=O)NC(=O)[C@@H](N)CO)C(C)C)C(=O)N[C@@H](CO)C(=O)N[C@@H](CC(N)=O)C(=O)N1CCC[C@H]1C(=O)N[C@@H](Cc1ccc(O)cc1)C(=O)N[C@@H](Cc1ccc(O)cc1)C(=O)N1CCC[C@H]1C(=O)N[C@@H](Cc1ccccc1)C(=O)N[C@@H](Cc1ccc(O)cc1)C(=O)N[C@@H](Cc1ccc(O)cc1)C(=O)N[C@@H](CO)C(=O)O", "test": "cytotoxicity", "system": "human cells", "conditions": "2 (unit not given)", "measurement": "CC50", "result": "> 100 µM"}
{"Compound": "CCC(=C(c1ccc(Cl)cc1)c1ccc(OCCN2CCOCC2)cc1)c1ccc(OC)cc1", "system": "human", "measurement": "CC50", "result": "18.6 µg/mL"}
{"Compound": "NCCCC[C@H](N)C(=O)NCC(=O)N[C@@H](CC(=O)O)C(=O)N[C@@H](CC(=O)O)C(=O)N[C@@H](Cc1ccccc1)C(=O)N[C@@H](Cc1ccccc1)C(=O)N1CCC[C@H]1C(=O)N[C@@H](Cc1ccc(O)cc1)C(=O)N[C@@H](Cc1ccc(O)cc1)C(=O)N[C@@H](Cc1c[nH]cn1)C(=O)N[C@@H](CO)C(=O)O", "test": "cytotoxicity", "system": "human cells", "conditions": "2 (unit not given)", "measurement": "CC50", "result": "> 100 µM"}
{"Compound": "CCCCCc1cc(OC(=O)C(N)C(C)C)c2c(c1)OC(C)(C)C1CCC(C)=CC21 (stereo not shown)", "system": "isolated rabbit cornea", "conditions": "3 h, pH 7.4, 34 °C, donor 2.5% RMβCD", "measurement": "Papp", "result": "4.75 ×10⁻⁶ cm/s"}
{"Compound": "CN[C@@H]1[C@H](O)[C@H](NC)[C@H]2O[C@]3(O)[C@H](O[C@@H]2[C@H]1O)O[C@H](C)C[C@H]3NC(=O)Cc1ccc(Cl)cn1", "test": "metabolic stability", "system": "rat, liver microsomes", "conditions": "90 min", "measurement": "compound remaining", "result": "88%"}
{"Compound": "COc1ccc(-n2cc(C(=O)N3C[C@]4(OC(=O)c5ccccc5NC(C)=O)CC[C@H](OC)[C@@]56[C@@H]4C[C@@H]([C@@H]35)[C@@]3(O)C[C@H](OC)[C@H]4C[C@@H]6[C@]3(O)[C@H]4OC)nn2)cc1", "system": "Sprague-Dawley rat, plasma", "conditions": "intravenous, 2 mg/kg", "measurement": "C0", "result": "140 ng/mL"}
{"Compound": "CC1=C[C@H]2c3c(O)cc(CCc4ccccc4)cc3OC(C)(C)[C@H]2CC1", "test": "LC-MS/MS", "system": "BALB/c mouse, brain", "conditions": "intraperitoneal, 50 mg/kg, 1 h", "measurement": "brain concentration", "result": "~1400 nM"}
{"Compound": "CN[C@@H]1[C@H](O)[C@H](NC)[C@H]2O[C@]3(O)[C@H](O[C@@H]2[C@H]1O)O[C@H](C)C[C@H]3NC(=O)Cc1ccc(F)cn1", "test": "metabolic stability", "system": "rat, liver microsomes", "conditions": "90 min", "measurement": "compound remaining", "result": "102%"}
{"Compound": "CC(CC(F)(F)F)(N=[N+]=[N-])C1C2OC(=O)C1C1(O)CC3OC34C(=O)OC2C14C (stereo not shown)", "conditions": "pH 7.4", "measurement": "logD", "result": 1.43}
{"Compound": "CCCCCc1cc(OC(=O)C(NC(=O)CCC(=O)O)C(C)C)c2c(c1)OC(C)(C)C1CCC(C)=CC21 (stereo not shown)", "system": "isolated rabbit cornea", "conditions": "3 h, pH 7.4, 34 °C, donor 1.5% RMβCD", "measurement": "Papp", "result": "6.5 ± 2.3 ×10⁻⁶ cm/s"}
{"note": "Repeated from above:"}
{"Compound": "CN[C@@H]1[C@H](O)[C@H](NC)[C@H]2O[C@]3(O)[C@H](O[C@@H]2[C@H]1O)O[C@H](C)C[C@H]3NC(=O)Cc1ccc(F)cn1", "test": "metabolic stability", "system": "rat, liver microsomes", "conditions": "90 min", "measurement": "compound remaining", "result": "102%"}
{"Compound": "CCC(=C(c1ccc(Cl)cc1)c1ccc(OCCN2CCOCC2)cc1)c1ccc(OC)cc1", "system": "human", "measurement": "CC50", "result": "18.6 µg/mL"}
